Measurements collected from several papers.
Every numbered part comes from another study and shows a few of its results, in no order.

Study 1 — technique: universal PBM; form: double-stranded DNA, one strand shown; sample: in vitro; concentration: not given; direction: higher = stronger binding; measurement: E-score
Target: Sal-like protein 4, full length isoform B (SALL4, Homo sapiens, UniProt Q9UJQ4-2, residues 1-616)
Setting: 8-mer, flanks averaged, mean of replicates
Construct (chain): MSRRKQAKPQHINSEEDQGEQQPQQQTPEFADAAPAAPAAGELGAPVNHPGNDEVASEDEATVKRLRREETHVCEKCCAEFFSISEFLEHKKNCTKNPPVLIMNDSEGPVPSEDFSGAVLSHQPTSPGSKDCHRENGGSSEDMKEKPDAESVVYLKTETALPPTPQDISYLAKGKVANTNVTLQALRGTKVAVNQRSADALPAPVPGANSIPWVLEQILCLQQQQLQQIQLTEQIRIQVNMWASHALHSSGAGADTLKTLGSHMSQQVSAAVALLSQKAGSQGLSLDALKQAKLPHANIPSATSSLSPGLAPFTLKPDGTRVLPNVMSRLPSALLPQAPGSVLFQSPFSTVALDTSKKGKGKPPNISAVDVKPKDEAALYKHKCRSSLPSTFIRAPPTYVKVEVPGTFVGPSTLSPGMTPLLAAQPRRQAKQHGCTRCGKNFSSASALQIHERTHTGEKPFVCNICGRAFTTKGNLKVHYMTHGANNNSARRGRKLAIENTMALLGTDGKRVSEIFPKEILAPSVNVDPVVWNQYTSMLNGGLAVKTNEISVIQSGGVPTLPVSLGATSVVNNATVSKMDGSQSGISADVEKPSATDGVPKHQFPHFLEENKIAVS
CCGTATGC: -0.164
AGAGTGCC: -0.146
GCGCAAAA: 0.222
AACTCGGT: -0.0506
ACATCAAC: 0.0413
AGCAACCA: -0.0231
AGAGAAGG: -0.142
TTTCAAAA: 0.349
AGGTCTGC: -0.133
CATGGCTA: 0.095
ATGGTCGA: 0.0545
CCCGCACG: -0.34
CCGCATTC: -0.126
CATTGTTC: 0.0383
GACCAACC: -0.227
ATCGAGAG: 0.0458
ATACTGTC: 0.145
GCTTGACC: -0.207
CAGGTGAG: -0.203
CGGACAAC: -0.0721
GGACTTTA: 0.138
GCATAGGC: 0.00894
AAAAGTCG: 0.0315
CAGCTACC: -0.267

Study 2 — technique: protein-binding microarray; form: double-stranded DNA, one strand shown; sample: in vitro; concentration: 250 nM; setting: 60-bp whole probe; together with: salmon DNA 0.4 mg/ml; baseline: random background probes; direction: higher = stronger binding; measurement: log fluorescence; all sequences stand within: GCCTAGCAC … GTCTTGATTCGCTTGACGCTGCTG
Target: Interferon regulatory factor 5, full length, phosphomimetic (IRF5, Homo sapiens, UniProt Q13568-2, residues 1-514, K96S/S451D/S453D/S456D/S462D)
TTAGATCTCTGTTTCGATTAGTGCTAG: 7.84 z-score
TTAGATTTCAGTCTCGATTAGTGCTAG: 2.98 z-score
TTAGGACTGAGTCTCGATTAGTGCTAG: 0.279 z-score
AAGTTTACCCATCTCCAGTAGTGCTAG: 0.144 z-score
GTAGGTTTCGACTATCGGTTAGTGCTA: 9.37 z-score
TTAGGACGGCTTTTCCTTTAGTGCTAG: -0.113 z-score
GACGGTCTCGGGATCGGGACGTGCTAG: -0.255 z-score
TTTGATTCCAGTTTCGATTAGTGCTAG: 9.58 z-score
TCAGATTACATATATGTTACTGTGCTA: 0.435 z-score
TTAGGTTTCGGTTCCGGATAGTGCTAG: 10.4 z-score
TTAGGACTGGGGTTTCGGGTAGTGCTA: 2.89 z-score
CTAGGTTTCCTTTTCCTTTAGTGCTAG: 1.28 z-score
TCATCTTTATGCACTCTTACTGTGCTA: 0.896 z-score
GACGATTTCGGGACTGGAGCCGTGCTA: 1.51 z-score
TTAGGACTGGGCACTGGGTTAGTGCTA: -0.655 z-score
TCAAACTTCTCCACTGAAACTGTGCTA: 1.08 z-score
GGGATGGTGGGGCTCCTCCTGTGCTAG: -0.486 z-score
GACGGTTTCGGTTTCGGCACGTGCTAG: 10.6 z-score
ATAGGACTGGGGTTTCGGTTAGTGCTA: 6.39 z-score

Study 3 — technique: protein binding microarray; form: double-stranded DNA, one strand shown; sample: in vitro; concentration: not given; baseline: not given; direction: higher = stronger binding; measurement: E-score
Target: Histone acetyltransferase KAT6A, both winged helices, GST fusion (KAT6A, Homo sapiens, UniProt Q92794, residues 1-181)
Setting: 8-mer, flanks averaged, mean of 2 arrays, mostly near background
Target sequence (chain): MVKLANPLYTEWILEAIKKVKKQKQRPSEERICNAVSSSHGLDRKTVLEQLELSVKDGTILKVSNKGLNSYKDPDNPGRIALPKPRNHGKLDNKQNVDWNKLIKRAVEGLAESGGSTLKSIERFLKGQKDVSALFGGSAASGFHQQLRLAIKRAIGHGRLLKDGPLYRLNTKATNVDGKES
GTTGGCAA: -0.157
CCATCGGG: 0.0709
CCTCTCCA: -0.161
TACAGATA: -0.0816
CTGTTGGA: -0.0421
AGCCGAAA: -0.067
GAAATAAC: -0.06
AATTATAT: -0.0832
ACAGCACG: 0.0889
ACTAACTA: -0.127
CAGTAGTA: -0.142
AGGAATCA: 0.0113
AGGCTGTC: -0.0862
ACAGGGAA: -0.296
ACCTCTTA: -0.00934
GCAGTAGA: -0.114
AGTAACTA: -0.0779
ATGAGGGA: -0.172
ACGCACGT: 0.0879
CCACACAG: -0.149
TAATAGAA: -0.0796
TACCTCAA: -0.136
ACAAGAGC: -0.13
TTATTAAA: 0.0276
CCAGACGG: 0.0976

Study 4 — technique: RNA Bind-n-Seq; form: RNA; sample: in vitro; concentration: 365 nM; baseline: no-protein control; direction: higher = stronger binding; measurement: RBNS enrichment (R)
Target: RNA binding protein fox-1 homolog 2, RRM domain, GST-SBP tag (RBFOX2, Homo sapiens, UniProt O43251-10, residues 100-194)
Setting: natural RNA segment, single round, ends assumed
Construct (chain): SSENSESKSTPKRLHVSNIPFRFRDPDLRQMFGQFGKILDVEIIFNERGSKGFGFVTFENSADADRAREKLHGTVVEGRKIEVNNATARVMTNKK
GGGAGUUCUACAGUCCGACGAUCUCAGGAAUCGGAAUCCUGUCGAUUAGACUGGACAGCUUGUGGCAAGUGAAUUUGCCUGUAACAAGCCAGAUUUUUUAAAAUUUAUAUUGUAAAUAUUGUGUGUGUGUGUGUGGAAUUCUCGGGUGCCAA: 0.781
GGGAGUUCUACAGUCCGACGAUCCUGGUUUGCACUCAGUGUAGAAGAGCUCAGACGGGUGCCAGAUUAGCACUGAGCGGUAAAGGGUCUCUUCAUCUCUGGACAUGAUGGGUGUUGUGUAUGACUCUGUUGCCUGGAAUUCUCGGGUGCCAA: 0.756
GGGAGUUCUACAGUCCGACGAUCAUAUGCAGCAAGCAAGGGUGACCUCCAGUGGCCCACUCAAGUCCAUGAGCCAUUAUCUAGGAUACUUUCUCUCUCUUUCAUGCAGUUCAAAGCCCAGGUAUCUCUCAGAUUGGAAUUCUCGGGUGCCAA: 0.296
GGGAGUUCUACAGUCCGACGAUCAAAUGCUAGCUUGGACAACUGAAAAGUCACAUCACAGCUGGCAUUCUGGGGGCUACCAAAACACCCCUUCUGGAGUAGAAGCUGCUGGAAGGCAGGCCUGAGCCAUUCACUGGAAUUCUCGGGUGCCAA: 0.206
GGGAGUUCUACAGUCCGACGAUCCGCGGCGCCCCCGCCCGCGCAGUGACGUCUCCAGCCCCGCAGCCCGGCCCGGGCGUCCUCCGCCAGCUCCUGUGACCAGCGCGUCUCCCGAUGCUCUCCGCCGUGUUCGUUGGAAUUCUCGGGUGCCAA: 0.376
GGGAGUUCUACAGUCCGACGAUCAAGCUCUCUGUUCAGCUCCGCGUUCUCAUGCUUCUCAUGGGGUGGGAAAAGGGGGCAAAGCCCCCACUUUUUAUACACUAGGCGGGGUAGACUGCGGGGUCCUAGCCUCUUGGAAUUCUCGGGUGCCAA: 0.335
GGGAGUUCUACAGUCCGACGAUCUCUCUCUGGGUUUGGACAUGAAAUGUAAGAAAAGAUUUUUCACUGGAGCAGCUCUCUUAAGGAGAAACAAAUCUAUUUAGAGAAACAGCUGGCCCUGCAAAUGUUUACAGUGGAAUUCUCGGGUGCCAA: 0.696
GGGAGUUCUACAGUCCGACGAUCUAAAUUUUACUCAAUUAUUUUACAAACCAAAUUGAGUUAUUCAAACACAAGCCAGUAUUCUGUGAACAAGUUCCAGAUGAAAAACACAGAAGUUGUGAAUGAAGUUGUAGUGGAAUUCUCGGGUGCCAA: 0.54

Repeated from above (study 1):
CCGTATGC: -0.164
AGAGTGCC: -0.146
GCGCAAAA: 0.222
AACTCGGT: -0.0506
